# Published values of several laboratories.
# Lines come from different studies, so protocols differ. “And” joins repeats or separate records; there may be more than shown. ± gives the spread as reported.
# CASP7: Caspase-7 (CASP7, Homo sapiens, UniProt P55210)
# Gria2: Glutamate receptor 2 (Gria2, Rattus norvegicus, UniProt P19491)
# T1: riboswitch RNA yjdF aptamer, L3 replaced by GAAA (Bacillus subtilis); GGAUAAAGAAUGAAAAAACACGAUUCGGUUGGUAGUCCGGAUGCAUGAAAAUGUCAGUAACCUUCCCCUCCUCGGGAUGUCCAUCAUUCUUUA
Compound,target or system,test,system,setting,how to read,measurement,value
NC(=O)c1cccc(NC(=O)c2cc(-c3ccccc3)nn2-c2ccccc2)c1,"Genome polyprotein, NS2B-NS3 protease (dengue virus type 2, UniProt P29990)","enzyme activity, fluorogenic AMC substrate",,50 µM,,inhibition,12%
CN1CCCNC(=O)c2cccc(c2)C(=O)NCCCN(C)CCCNc2cccc3c2C(=O)c2cccc(c2C3=O)NCCC1,SAS,"RNA-Seq, refers to: TM9SF4 mRNA",,"1 µM, 6 h",relative to: untreated cells,log2 fold change,-0.529
COc1cc(C2C(NC(=O)c3ccc(NC(=O)OC(C)(C)C)cc3)(C(=O)O)C(c3ccc(OC(=O)c4cccs4)c(OC)c3)C2(NC(=O)c2ccc(NC(=O)OC(C)(C)C)cc2)C(=O)O)ccc1OC(=O)c1cccs1 (stereo not drawn),"Glucagon-like peptide 1 receptor (GLP1R, Homo sapiens, UniProt P43220, L384A)","cAMP accumulation, agonist",,receptor mutant,relative to: wild type,Emax,4.85 ± 3.17%
CC(=O)N[C@@H](Cc1c[nH]c2ccccc12)C(=O)N[C@@H](CCC(=O)O)C(=O)N[C@@H](Cc1c[nH]cn1)C(=O)N[C@@H](CC(=O)O)C(=O)COC(=O)c1c(C)cccc1C,CASP7,"enzyme activity, inhibitor",,,,kinact/KI,13300 M⁻¹ s⁻¹
CC1CCN(c2ccc(-c3n[nH]c(=O)c4cccnc34)cc2)CC1,human kinase panel,"binding, KINOMEscan",,"10000 nM, %Ctrl below 1",,number of kinases hit,0
COc1ccc2c(c[n+](C)c3c4cc5c(cc4ccc23)OCO5)c1OC,"T1, riboswitch RNA yjdF aptamer, L3 replaced by GAAA (Bacillus subtilis)",fluorescence titration,,read off a plot,,Kd,< 0.1 nM
O=C(O)Cc1cc2c(cc1C(=O)c1ccccc1)OCO2,Gria2,"glutamate-evoked current, whole-cell patch clamp",HEK-293T,"concentration not given, weighted tau, 1 ms pulse, together with: glutamate",,deactivation time constant,2.6 ± 0.1 ms
Cc1ncsc1-c1ccc(C(C)NC(=O)C2CC(O)CN2C(=O)C(NC(=O)CCCCCCCCCCN2CCCC(Nc3ncc(Cl)c(Nc4ccccc4S(=O)(=O)C(C)C)n3)C2)C(C)(C)C)cc1 (stereo not drawn),22Rv1,"RNA-seq, refers to: PPP1R3D mRNA",,concentration not given,relative to: DMSO,log2 fold change,-1.95
C=CC(=O)Nc1cccc(Cn2ncc3cnc(Nc4cnn(CCOC)c4)nc32)c1,BLK human,"binding, KINOMEscan",,100 nM,lower = stronger binding,percent of control,1.6%
COc1ccc(C(OCCN2CCCC(C(=O)O)C2)(c2ccc(OC)cc2)c2ccc(OC)cc2)cc1 (stereo not drawn),"Sodium- and chloride-dependent GABA transporter 1 (SLC6A1, Homo sapiens, UniProt P30531)","GABA transport, inhibitor, radioligand uptake",HEK293F transfected,"20 µM, 15 min pre, 45 min uptake, room temperature, together with: [3H]-GABA 30 nM, GABA 25 µM",higher = more uptake,[3H]-GABA uptake,812 a.u. and 3100 a.u. and 2950 a.u. and 982 a.u. and 1050 a.u. and 652 a.u. and 937 a.u. and 690 a.u.
CC(=O)N[C@@H](CC(=O)O)C(=O)N[C@@H](CC(C)C)C(=O)N[C@H](C(=O)N[C@@H](C)C(=O)N[C@@H](CC(=O)O)C(=O)COC(=O)c1c(C)cccc1C)[C@@H](C)O,CASP7,"enzyme activity, inhibitor",,,,kinact/KI,3100 M⁻¹ s⁻¹
CCOC(=O)C(CC)(CCCSCCOCCOCCN)NC(=O)c1ccc(C2CC2)c(Cc2ccc(F)cc2)n1 (racemic),"Cannabinoid receptor 2 (CNR2, Homo sapiens, UniProt P34972)","cAMP, agonist",,,,EC50,28 nM
C#CC[C@H](NC(=O)c1ccc(C(=O)c2ccccc2)cc1)C(=O)NCCCCCC(=O)N[C@@H](CCCCNC(=O)CSCCNC(=O)CCNC(=O)[C@H](O)C(C)(C)COP(=O)(O)OP(=O)(O)OC[C@H]1O[C@@H](n2cnc3c(N)ncnc32)[C@H](O)[C@@H]1OP(=O)(O)O)C(N)=O,"Endoplasmic reticulum chaperone BiP (HSPA5, Homo sapiens, UniProt P11021)",affinity enrichment LC-MS/MS,"HEK293 cell extract, PCAF transfected",,relative to: 1 over empty vector,enrichment ratio,1.4
COC1CN([C@H]2CC[C@H]([C@@]3(C)Oc4c(Cl)cc(C(=O)NCc5c(SC)cc(C)[nH]c5=O)c(C)c4O3)CC2)C1,,"RNA-seq, refers to: CDKL1","human, whole blood","dose not given, 24 h",relative to: pretreatment baseline,log2 fold change,1.02
COC(=O)Cc1cc2c(cc1C(=O)c1ccccc1Br)OCO2,Gria2,"glutamate-evoked current, whole-cell patch clamp",HEK-293T,"concentration not given, glutamate alone after washout, together with: glutamate",,current amplitude after recovery,1320 ± 76 pA
CCN(CC)C(CO)c1cccc2c(C)c(C)oc12 (stereo not drawn),"Lysophosphatidic acid receptor 1 (LPAR1, Homo sapiens, UniProt Q92633, W271A)","G-protein dissociation, agonist, NanoBiT",HEK-293T,"10 nM, W271A mutant",relative to: baseline luminescence,fold change,0.962 and 0.991 and 0.978 and 1.01 and 0.971 and 0.97
CC(C)[C@H](NC(=O)[C@@H]1CSSC(C)(C)[C@H](NC(=O)[C@@H](N)CC(=O)O)C(=O)N[C@@H](Cc2ccccc2)C(=O)N[C@@H](Cc2c[nH]c3ccccc23)C(=O)N[C@@H](CCCCN)C(=O)N[C@@H](Cc2ccc(O)cc2)C(=O)N1)C(=O)O,"Urotensin-2 receptor (UTS2R, Homo sapiens, UniProt Q9UKP6, F127A)","IP1 accumulation, agonist, IP1 HTRF",HEK293T,,relative to: wild-type receptor,span,137 ± 12%
CCCCCC(O)/C=C/C=O (stereo not drawn),"CKB (Homo sapiens, UniProt P12277)",acylphosphate-ATP probe SILAC-ABPP,ZAK-transfected HEK293T,"100 µM, together with: acylphosphate-ATP probe",relative to: DMSO over compound-treated,probe labelling ratio,0.65
C[C@@H](Nc1nc(N[C@H](C)C(F)(F)F)nc(-c2cccc(Cl)n2)n1)C(F)(F)F,"Isocitrate dehydrogenase [NADP] cytoplasmic (IDH1, Homo sapiens, UniProt O75874, R132C)",refers to: 2-hydroxyglutarate,COR-L105,,,maximal inhibition,91%
CC(=O)[O-].O.O.O.O.[Co+2].[O-]c1ccc(Br)cc1C=NCCN1CCOCC1,,FRAP,,200 µM,,ferric reducing power,51.3%
CNS(=O)(=O)Nc1nccc(Cc2c(C)c3ccc(Oc4ncccc4F)cc3oc2=O)c1F,NCI-H2030,cell viability,,7 days,,IC50,> 1000 nM
